Assay results collected from several papers.
Protocols differ between the studies behind these lines. Numbers after ± are the reported error.
SLCO1B1 N130D/P155T: Solute carrier organic anion transporter family member 1B1 (SLCO1B1, Homo sapiens, UniProt Q9Y6L6, N130D/P155T)
Sequence of UniProt Q9Y6L6 (whole entry, unmodified, looked up): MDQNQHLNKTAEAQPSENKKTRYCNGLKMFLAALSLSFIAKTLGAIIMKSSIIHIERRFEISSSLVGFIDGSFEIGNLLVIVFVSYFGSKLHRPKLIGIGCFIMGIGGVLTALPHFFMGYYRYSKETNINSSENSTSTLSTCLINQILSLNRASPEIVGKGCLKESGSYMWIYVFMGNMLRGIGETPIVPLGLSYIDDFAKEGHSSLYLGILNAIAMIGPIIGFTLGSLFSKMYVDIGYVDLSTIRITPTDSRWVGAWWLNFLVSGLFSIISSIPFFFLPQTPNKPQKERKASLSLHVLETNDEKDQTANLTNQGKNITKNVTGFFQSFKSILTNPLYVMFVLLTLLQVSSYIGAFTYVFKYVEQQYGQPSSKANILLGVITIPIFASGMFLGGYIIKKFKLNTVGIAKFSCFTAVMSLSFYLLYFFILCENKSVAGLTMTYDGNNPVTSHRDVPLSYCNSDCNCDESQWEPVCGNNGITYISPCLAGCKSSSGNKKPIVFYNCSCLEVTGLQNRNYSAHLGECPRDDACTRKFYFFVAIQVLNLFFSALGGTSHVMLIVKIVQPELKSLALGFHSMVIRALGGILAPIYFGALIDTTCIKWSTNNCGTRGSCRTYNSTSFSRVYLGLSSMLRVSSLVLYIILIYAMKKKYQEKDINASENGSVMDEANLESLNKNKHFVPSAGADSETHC
Sequence of UniProt Q12809 (whole entry, looked up): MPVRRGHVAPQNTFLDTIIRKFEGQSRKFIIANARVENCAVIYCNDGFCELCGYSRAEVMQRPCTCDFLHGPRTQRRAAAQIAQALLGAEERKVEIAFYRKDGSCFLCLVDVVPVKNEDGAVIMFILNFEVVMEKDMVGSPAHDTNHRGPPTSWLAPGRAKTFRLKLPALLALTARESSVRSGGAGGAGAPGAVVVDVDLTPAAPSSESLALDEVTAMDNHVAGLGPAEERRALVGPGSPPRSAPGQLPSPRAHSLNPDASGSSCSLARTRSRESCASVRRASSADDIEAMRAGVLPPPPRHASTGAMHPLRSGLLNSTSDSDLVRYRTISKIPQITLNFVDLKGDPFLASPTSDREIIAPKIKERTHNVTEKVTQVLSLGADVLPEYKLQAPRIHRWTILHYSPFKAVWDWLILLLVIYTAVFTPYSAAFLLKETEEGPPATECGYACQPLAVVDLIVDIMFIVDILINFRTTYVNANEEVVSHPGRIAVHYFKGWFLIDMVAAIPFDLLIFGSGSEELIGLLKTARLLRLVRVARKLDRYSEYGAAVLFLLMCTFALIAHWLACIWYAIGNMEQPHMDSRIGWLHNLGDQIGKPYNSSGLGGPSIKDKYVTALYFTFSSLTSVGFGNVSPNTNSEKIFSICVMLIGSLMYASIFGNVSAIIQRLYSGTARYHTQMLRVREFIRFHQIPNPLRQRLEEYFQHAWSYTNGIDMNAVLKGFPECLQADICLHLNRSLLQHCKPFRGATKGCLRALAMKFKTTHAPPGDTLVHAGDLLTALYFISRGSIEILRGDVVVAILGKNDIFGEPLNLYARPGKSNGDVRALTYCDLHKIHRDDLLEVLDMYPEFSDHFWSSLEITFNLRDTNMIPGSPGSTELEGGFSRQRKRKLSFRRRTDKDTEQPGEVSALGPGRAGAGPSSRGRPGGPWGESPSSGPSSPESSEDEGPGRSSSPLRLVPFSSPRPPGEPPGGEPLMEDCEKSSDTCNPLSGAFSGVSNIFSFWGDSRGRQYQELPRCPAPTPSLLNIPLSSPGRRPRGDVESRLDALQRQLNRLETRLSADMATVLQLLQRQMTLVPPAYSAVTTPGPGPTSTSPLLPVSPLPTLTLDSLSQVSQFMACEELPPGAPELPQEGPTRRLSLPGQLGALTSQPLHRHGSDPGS

| Compound | tested on | test | test system | conditions | how to read | measurement | result |
| --- | --- | --- | --- | --- | --- | --- | --- |
| O=C1C(Cl)=C(Cl)C(=O)c2ccccc21 | CRFK | cell growth or viability |  | 25 µM, 72 h |  | viability | 80% |
| CC(CCC(=O)NCC(=O)O)C1CCC2C3C(O)CC4CC(OC5OC(C(=O)O)C(O)C(O)C5O)CCC4(C)C3CCC12C (centres unmarked) | SLCO1B1 N130D/P155T | substrate | HEK293 expressing OATP1B1 variant | 1 µM, 2 min | relative to: wild-type HEK293 cells | uptake ratio | 157 ± 6.4 |
| CC[C@H](C)C(=O)N1CCC(NC(=O)Nc2ccc(OC(F)(F)F)c(F)c2)CC1 |  |  | healthy volunteers | oral, 16 mg single dose |  | subjects with feeling hot TEAE | 0% |
| CN(C)CC1CCCCC1(O)c1cccc(O)c1 (centres unmarked) |  |  | Caco-2 | 50 µM, 3 h, pH 7.4 |  | Papp B→A | 17.4 ×10⁻⁶ cm/s |
| O=C(O)CCC(NP(=O)(O)OCCC[C@@H](NC(=O)CCC(NC(=O)CCCCCNC(=O)CCCCCNC(=O)c1ccc([18F])cc1)C(=O)O)C(=O)O)C(=O)O (some centres unmarked) | CWR22Rv1 tumour model |  | host not given, lung | intravenous, 1 h, tumour-bearing |  | tracer uptake | 0.25 %ID/g |
| CC[N+](C)(CC)Cc1cc(Nc2ccnc3cc(Cl)ccc23)ccc1O | BHK-21 DENV2 replicon cells |  |  | 24 h |  | CC50 | 36 ± 5.04 µM |
| C[C@@](O)(C(F)F)[C@H](NC(=O)c1ccc(C#CC#CC2CC2)cc1)C(=O)NO |  |  | dog, plasma | intravenous, 30 mg/kg |  | clearance | 26 mL/min/kg |
| COc1ccc(CNc2nc(N3CCC[C@H]3CO)ncc2C(=O)NNC(=O)c2cnc(N3CCC[C@H]3CO)nc2NCc2ccc(OC)c(Cl)c2)cc1Cl | Salmonella typhimurium |  | TA102 | 250 µg/plate, added: rat liver S9 |  | revertant count | 226 ± 14 |
| CC(CCC(=O)NCC(=O)O)C1CCC2C3CCC4CC(OC5OC(C(=O)O)C(O)C(O)C5O)CCC4(C)C3CC(O)C12C (centres unmarked) | SLCO1B1 N130D/P155T | substrate | HEK293 expressing OATP1B1 variant | 1 µM, 2 min | relative to: wild-type HEK293 cells | uptake ratio | 142 ± 5 |
| O=C(O)CCC(NP(=O)(O)OCCC[C@@H](NC(=O)CCC(NC(=O)c1ccc([18F])cc1)C(=O)O)C(=O)O)C(=O)O (some centres unmarked) | PC-3 tumour model |  | host not given, heart | intravenous, 2 h, tumour-bearing |  | tracer uptake | 0.36 %ID/g |
| CN[C@](C)(C[18F])C(=O)O | A549 tumour model |  | host not given, liver | 2 h, tumour-bearing |  | tracer uptake | 2.3 %ID/g |
| COc1ccc(Nc2c(NC3CCN(Cc4ccccc4)CC3)c(=O)c2=O)cc1OC | SH-SY5Y | MTT |  | 6.25 µM, 24 h |  | viability | 76.4 ± 1.98% |
| Nc1nc2c([C@@H]3O[C@@H]4COP(=O)(O)O[C@H]5[C@@H](O)[C@H](n6cnc7c(=O)[nH]c(N)nc76)O[C@@H]5COP(=O)(O)O[C@H]4[C@H]3O)scc2c(=O)[nH]1 |  |  |  |  | relative to: parent monomeric nucleoside | relative emission quantum yield | ~39% |
| CCCCCc1cc(OC(=O)C(NC(=O)CCC(=O)O)C(C)C)c2c(c1)OC(C)(C)C1CCC(C)=CC21 (centres unmarked) |  | shake-flask | aqueous solution | 24 h, 25 °C | relative to: THC | solubility increase | 96 fold |
| COc1ccc(CNc2nc(N3CCC[C@H]3CO)ncc2C(=O)NN)cc1Cl | Salmonella typhimurium |  | TA97a | 125 µg/plate, 48 h |  | revertant count | 144 ± 12 |
| COC(=O)CCCC1C2CCCN3CCCC(CN1S(=O)(=O)c1ccc(Cl)cc1)C23 (centres unmarked) | HEK293T |  |  |  |  | CC50 | 200 µM |
| CC[C@H](C)[C@H](NC(=O)[C@H](CC(=O)O)NC(=O)[C@@H](NC(=O)[C@@H]1CCCN1C(=O)[C@H](CCCNC(=N)N)NC(=O)CCc1cn(CCOCCOCCOCCNC(=O)CCCCC[N+]2=C(/C=C/C=C/C=C3/N(C)c4ccccc4C3(C)C)C(C)(C)c3ccccc32)nn1)[C@@H](C)O)C(=O)N[C@@H](CCCCN)C(=O)N[C@H]1CSSC[C@@H]2NC(=O)[C@H](CCCNC(=N)N)NC(=O)CNC(=O)[C@H](CC(N)=O)NC(=O)[C@H]([C@@H](C)O)NC(=O)[C@H](CCCCN)NC(=O)CNC(=O)[C@H](Cc3ccccc3)NC(=O)[C@H](CCCNC(=N)N)NC(=O)[C@H](CO)NC(=O)[C@H](CCCCN)NC(=O)[C@@H]3CSSC[C@@H](C(=O)N[C@@H](Cc4ccccc4)C(=O)O)NC(=O)[C@H](CC(=O)O)NC(=O)[C@H](CSSC[C@H](NC(=O)[C@H](CCC(N)=O)NC(=O)[C@H](Cc4ccc(O)cc4)NC(=O)[C@H](CO)NC(=O)[C@H](CCC(=O)O)NC(=O)[C@H](CO)NC1=O)C(=O)N[C@@H](Cc1ccccc1)C(=O)N1CCC[C@H]1C(=O)N[C@@H](C(C)C)C(=O)N3)NC(=O)[C@H](Cc1ccccc1)NC(=O)CNC(=O)[C@H](CC(N)=O)NC(=O)[C@H](C(C)C)NC2=O | KCNH2 (Homo sapiens, UniProt Q12809) | ion current, inhibitor, two-electrode voltage clamp |  | pH 7.4, oocytes |  | IC50 | 0.0886 µM |
| O=C(O)CCC(NP(=O)(O)OCCC[C@@H](NC(=O)CCC(NC(=O)CCCCCNC(=O)c1ccc([18F])cc1)C(=O)O)C(=O)O)C(=O)O (some centres unmarked) | PC-3 tumour model |  | host not given, kidney | intravenous, 2 h, tumour-bearing |  | tracer uptake | 19 %ID/g |
| COC(=O)CC1C2CCCN3CCCC(CN1C(=O)c1ccc(Cl)cc1)C23 (centres unmarked) | HEK293T |  |  |  |  | CC50 | > 200 µM |
| COc1cc(C(=O)NCCOCCOCCOCCNC(=O)c2ccc([18F])nc2)ccc1NC(=O)C1NC(CC(C)(C)C)C(C#N)(c2ccc(Cl)cc2F)C1c1cccc(Cl)c1F (centres unmarked) | HepG2 tumour model |  | host not given, brain | 4 h, tumour-bearing |  | tracer uptake | 0.16 %ID/g |
| Cc1nc(=O)c2cc(CN(C)c3ccc(C(=O)NCc4cccc(C(=O)O)c4)s3)ccc2[nH]1 | Mycobacterium tuberculosis |  | H37Rv | 10 µM, 24 h |  | uptake from medium | 55.4 ± 7.4% |
| O=C(O)CCCC1C2CCCN3CCCC(CN1Cc1ccc(Cl)c(Cl)c1)C23 (centres unmarked) | HEK293T |  |  |  |  | CC50 | 200 µM |
| CCC(=O)N(C)c1ccc(Cl)c(Cl)c1 | Salmonella typhimurium | Ames test | TA98 | 5.00 mg/plate, with rat liver S9 |  | revertants | 0 revertants/plate |

Repeated from above:
| Compound | tested on | test | test system | conditions | how to read | measurement | result |
| --- | --- | --- | --- | --- | --- | --- | --- |
| Cc1nc(=O)c2cc(CN(C)c3ccc(C(=O)NCc4cccc(C(=O)O)c4)s3)ccc2[nH]1 | Mycobacterium tuberculosis |  | H37Rv | 10 µM, 24 h |  | uptake from medium | 55.4 ± 7.4% |
| O=C(O)CCCC1C2CCCN3CCCC(CN1Cc1ccc(Cl)c(Cl)c1)C23 (centres unmarked) | HEK293T |  |  |  |  | CC50 | 200 µM |
| CCC(=O)N(C)c1ccc(Cl)c(Cl)c1 | Salmonella typhimurium | Ames test | TA98 | 5.00 mg/plate, with rat liver S9 |  | revertants | 0 revertants/plate |
